Measurements pooled from the literature.
Numbered parts are unrelated; each lists some results of a single study. Substitutions count along the parent as printed.
Chain of UniProt Q12866 (whole entry, looked up): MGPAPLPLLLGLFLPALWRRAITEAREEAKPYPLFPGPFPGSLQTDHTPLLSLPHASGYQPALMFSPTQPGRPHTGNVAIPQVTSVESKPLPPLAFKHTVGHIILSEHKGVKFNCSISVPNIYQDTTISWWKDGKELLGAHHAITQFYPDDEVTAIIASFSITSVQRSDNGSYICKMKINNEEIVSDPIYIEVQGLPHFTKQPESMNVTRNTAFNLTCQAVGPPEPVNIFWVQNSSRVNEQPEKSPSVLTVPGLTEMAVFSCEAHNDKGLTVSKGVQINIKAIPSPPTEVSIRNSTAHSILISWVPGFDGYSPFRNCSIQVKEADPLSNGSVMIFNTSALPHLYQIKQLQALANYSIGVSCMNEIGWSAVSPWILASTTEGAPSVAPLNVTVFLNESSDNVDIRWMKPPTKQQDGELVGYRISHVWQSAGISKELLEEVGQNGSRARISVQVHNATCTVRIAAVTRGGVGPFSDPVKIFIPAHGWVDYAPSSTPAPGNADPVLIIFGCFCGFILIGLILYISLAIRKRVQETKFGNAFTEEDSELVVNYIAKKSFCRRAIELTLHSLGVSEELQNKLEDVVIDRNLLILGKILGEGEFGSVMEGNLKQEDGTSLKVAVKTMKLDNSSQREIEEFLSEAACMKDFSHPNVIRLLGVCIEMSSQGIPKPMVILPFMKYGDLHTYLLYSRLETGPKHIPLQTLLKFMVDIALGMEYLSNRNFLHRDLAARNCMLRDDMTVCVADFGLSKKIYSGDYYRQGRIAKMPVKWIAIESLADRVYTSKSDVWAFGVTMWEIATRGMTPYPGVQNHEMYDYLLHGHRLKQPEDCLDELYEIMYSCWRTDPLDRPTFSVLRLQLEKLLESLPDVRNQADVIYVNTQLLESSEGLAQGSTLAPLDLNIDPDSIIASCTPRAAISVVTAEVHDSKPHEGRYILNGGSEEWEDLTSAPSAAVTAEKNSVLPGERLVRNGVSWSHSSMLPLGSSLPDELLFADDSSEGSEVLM
Chain of UniProt P36896 (whole entry, looked up): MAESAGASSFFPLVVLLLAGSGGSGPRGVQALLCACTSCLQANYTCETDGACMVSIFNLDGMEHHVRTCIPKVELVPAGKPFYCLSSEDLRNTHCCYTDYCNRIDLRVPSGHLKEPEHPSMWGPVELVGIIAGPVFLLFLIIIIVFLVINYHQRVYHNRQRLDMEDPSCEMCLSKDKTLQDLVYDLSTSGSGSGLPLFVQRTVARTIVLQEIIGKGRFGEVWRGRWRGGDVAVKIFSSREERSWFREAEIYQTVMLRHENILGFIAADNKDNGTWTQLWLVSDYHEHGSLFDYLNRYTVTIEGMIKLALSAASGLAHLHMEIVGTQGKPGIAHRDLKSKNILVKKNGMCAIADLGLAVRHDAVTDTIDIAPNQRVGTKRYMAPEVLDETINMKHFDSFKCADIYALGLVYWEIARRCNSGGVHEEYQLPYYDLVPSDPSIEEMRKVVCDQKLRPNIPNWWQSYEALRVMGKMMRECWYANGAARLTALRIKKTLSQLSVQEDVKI
Chain of UniProt O75582 (whole entry, looked up): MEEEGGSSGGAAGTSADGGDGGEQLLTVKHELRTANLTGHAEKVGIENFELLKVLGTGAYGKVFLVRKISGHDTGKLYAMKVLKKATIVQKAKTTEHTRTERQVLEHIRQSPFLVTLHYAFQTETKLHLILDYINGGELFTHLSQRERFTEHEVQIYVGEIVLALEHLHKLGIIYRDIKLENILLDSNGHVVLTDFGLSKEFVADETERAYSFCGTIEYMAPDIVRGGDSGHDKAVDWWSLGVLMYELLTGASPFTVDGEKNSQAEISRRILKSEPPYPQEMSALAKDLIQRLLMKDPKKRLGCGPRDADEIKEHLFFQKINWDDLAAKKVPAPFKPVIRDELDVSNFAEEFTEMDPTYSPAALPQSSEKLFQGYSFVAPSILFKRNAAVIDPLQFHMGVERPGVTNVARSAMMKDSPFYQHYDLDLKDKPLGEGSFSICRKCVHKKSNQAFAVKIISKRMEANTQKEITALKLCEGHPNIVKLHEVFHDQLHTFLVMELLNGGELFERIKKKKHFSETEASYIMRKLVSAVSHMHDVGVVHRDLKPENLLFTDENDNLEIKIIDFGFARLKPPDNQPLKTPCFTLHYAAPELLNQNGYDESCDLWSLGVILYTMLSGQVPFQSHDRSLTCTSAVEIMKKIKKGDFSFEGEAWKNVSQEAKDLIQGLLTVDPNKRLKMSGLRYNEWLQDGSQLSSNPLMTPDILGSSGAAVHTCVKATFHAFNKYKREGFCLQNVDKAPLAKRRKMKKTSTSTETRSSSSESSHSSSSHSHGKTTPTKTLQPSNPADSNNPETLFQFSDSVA
Chain of UniProt Q15349 (whole entry, looked up): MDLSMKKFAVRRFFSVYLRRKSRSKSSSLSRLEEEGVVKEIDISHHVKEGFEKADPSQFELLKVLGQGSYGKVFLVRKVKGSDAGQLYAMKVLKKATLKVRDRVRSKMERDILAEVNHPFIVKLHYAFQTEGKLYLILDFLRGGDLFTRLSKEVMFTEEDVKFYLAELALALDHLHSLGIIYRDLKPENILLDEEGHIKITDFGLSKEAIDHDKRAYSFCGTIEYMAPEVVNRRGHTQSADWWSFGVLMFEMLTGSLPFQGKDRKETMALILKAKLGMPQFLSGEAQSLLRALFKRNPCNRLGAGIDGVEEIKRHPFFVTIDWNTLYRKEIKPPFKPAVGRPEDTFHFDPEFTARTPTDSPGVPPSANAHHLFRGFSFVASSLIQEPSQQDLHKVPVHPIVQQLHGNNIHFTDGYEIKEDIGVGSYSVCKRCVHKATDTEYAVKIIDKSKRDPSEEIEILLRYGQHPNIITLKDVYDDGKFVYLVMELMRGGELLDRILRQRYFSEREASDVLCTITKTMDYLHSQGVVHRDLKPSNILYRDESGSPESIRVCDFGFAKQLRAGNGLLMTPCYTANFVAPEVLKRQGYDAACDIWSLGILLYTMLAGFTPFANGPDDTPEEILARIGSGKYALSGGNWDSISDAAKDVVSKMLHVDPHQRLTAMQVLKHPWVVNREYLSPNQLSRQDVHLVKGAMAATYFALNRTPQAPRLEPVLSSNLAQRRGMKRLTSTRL
Chain of UniProt Q9HC98 (whole entry, looked up): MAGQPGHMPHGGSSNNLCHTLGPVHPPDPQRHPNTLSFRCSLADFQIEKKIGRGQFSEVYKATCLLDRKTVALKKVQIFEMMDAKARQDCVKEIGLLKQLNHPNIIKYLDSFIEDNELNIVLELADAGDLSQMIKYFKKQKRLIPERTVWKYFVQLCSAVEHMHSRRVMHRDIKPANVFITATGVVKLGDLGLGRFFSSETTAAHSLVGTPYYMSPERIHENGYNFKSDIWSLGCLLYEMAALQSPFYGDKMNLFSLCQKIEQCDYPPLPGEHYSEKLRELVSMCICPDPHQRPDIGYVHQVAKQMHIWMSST
Chain of UniProt P42685 (whole entry, looked up): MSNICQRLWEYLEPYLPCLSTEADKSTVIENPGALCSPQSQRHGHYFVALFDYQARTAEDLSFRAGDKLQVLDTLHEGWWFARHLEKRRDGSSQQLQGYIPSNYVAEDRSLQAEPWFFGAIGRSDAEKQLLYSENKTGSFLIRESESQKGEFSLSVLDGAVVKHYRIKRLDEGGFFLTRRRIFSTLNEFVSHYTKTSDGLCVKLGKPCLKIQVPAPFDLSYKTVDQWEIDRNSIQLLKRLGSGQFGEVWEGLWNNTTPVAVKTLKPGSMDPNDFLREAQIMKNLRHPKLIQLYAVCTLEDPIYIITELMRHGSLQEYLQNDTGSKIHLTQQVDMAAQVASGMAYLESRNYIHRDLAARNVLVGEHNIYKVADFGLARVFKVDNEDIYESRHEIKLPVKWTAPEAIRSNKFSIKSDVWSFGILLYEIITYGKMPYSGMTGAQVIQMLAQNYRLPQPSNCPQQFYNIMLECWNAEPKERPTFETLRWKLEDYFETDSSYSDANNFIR
Chain of UniProt P25098 (whole entry, looked up): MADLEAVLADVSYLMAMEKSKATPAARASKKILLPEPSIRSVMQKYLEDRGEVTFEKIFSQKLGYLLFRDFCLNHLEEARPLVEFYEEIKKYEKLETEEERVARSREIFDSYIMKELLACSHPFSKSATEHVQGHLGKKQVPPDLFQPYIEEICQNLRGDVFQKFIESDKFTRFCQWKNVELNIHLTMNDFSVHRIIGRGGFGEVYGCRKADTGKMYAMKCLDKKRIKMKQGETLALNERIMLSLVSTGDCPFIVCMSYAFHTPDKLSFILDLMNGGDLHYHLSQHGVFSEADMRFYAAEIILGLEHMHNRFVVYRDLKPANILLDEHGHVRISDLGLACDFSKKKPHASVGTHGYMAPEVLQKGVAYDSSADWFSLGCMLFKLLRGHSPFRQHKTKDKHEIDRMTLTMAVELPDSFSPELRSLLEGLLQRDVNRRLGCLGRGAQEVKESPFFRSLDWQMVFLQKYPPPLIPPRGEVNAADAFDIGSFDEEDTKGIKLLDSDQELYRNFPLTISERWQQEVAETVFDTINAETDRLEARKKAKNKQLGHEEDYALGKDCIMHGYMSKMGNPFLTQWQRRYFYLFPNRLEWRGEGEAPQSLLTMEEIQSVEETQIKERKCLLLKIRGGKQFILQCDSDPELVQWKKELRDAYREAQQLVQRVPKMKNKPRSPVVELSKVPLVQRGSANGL

Sample 1
Target: CCND3, cyclin fold, Cln2 fusion (human)
Method: yeast growth competition, sequencing
Matrix: yeast
Setting: weak parent motif
Reference: not given
Direction: higher = stronger binding
Starting sequence: CDC6 docking peptide (human); TLKGRRLVFDNQL
Substitution | normalised enrichment score
TLKGRRLIFDNQL [V8I] | 0.0278
TLKGRRLVFPNQL [D10P] | 0.0566
TLKGRRLSFDNQL [V8S] | 0.0994
TLKGRRLVFDNVL [Q12V] | 0.16
TFKGRRLVFDNQL [L2F] | 0.0106
TLKGKRLVLDNQL [R5K F9L] | 0.482
TLKGRRLVFANQL [D10A] | 0.0595
TLKGRRLVFDVQL [N11V] | 0.108

Sample 2
Target: RNA binding protein fox-1 homolog 2, RRM domain, GST-SBP tag (RBFOX2, Homo sapiens, UniProt O43251-10, residues 100-194)
Method: RNA Bind-n-Seq
Molecule type: RNA
Matrix: in vitro
Concentration: 365 nM
Setting: natural RNA segment, single round, ends assumed
Reference: no-protein control
Direction: higher = stronger binding
Constant ends, left off below: GGGAGUUCUACAGUCCGACGAUC … UGGAAUUCUCGGGUGCCAA
Construct (chain): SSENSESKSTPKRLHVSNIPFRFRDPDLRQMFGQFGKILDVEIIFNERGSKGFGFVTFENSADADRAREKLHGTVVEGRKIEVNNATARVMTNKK
Strand | RBNS enrichment (R)
UAUUCAUUUCAGUAGAAGAUAAUCUUAUCUAAUUUUUGAGACCAGAAUAAGCCUUUUAAGGUAAACCUCAAAAUUAUCAUUUUAUGGUAAUACUGACCAUUUUAGUCCCC | 0.381
GGUUGAUAUAGCGACAUUACCUGGGCUCUGUGCUGUCCUGUGGGUGGAGGCCAUUAUCACUGGGCUGCUGCUUUCCUGGGCAAGCCACUCUCUAUUUUUCUGCAAAGGUC | 0.336
CAGCUCGGAUUAAGAAUAUGUUUCCUUGUUUAUCAGAUACAUCACUGCUUGAUGAAGCAAGGAAGAUAUACAUGAAAAUUUUAAAAAUACAUAUCGCUGACUUCAUGGAA | 0.53
ACAUCAAGUUAGAAGUCUGAUUUUGAAUAAUAUCAUCAAUAAGAAGGAGUUUGGGAUUUUGGCAAAGACCAAAUACUUUCAAAUGUUGAAGAUGCAUGCGAUGAAUACCA | 2.28
GAAAGAGGGCAUUCAUGCAUAGAAUUCUGAGGCCUGGCACAACUCCCUGCCCAGGAGCACAGCUUGCUGCUGAGGGCUGGGUGUGACCGUGUCUGCCUCUGGCUGCUGGG | 3.78
CACUUAUUUUUUAAAGCGUCAUGUGAGAUAUUUUUUUAAACAAAACAAAAUAAUGGUAAUUAAAGAAGCAAAGCUUCAGCCAUACUAAGGGGUUUCUUGUCUGCAGAGUG | 0.548
CCCUGUCUGCGGAAGGUAGGAUUAGAUCAUUAGCUCAGUGACCUCCUAGGGUUUCGAUGUGCUGUGUUCUCAUCCUACAGCUGGUUUGGUAAUGAUCUGCAAGUCCCGGA | 0.621
AUAAACCACUUGAGCCUAUAUCAGUCGUUUUAGUGUCUGACCUAAUAUUUGGAGCUAUCAGUGCUUUGUUGAUUUAGAUGAUGACUCAAGAUUUUUUCUGGUCCAUUUCC | 0.331

Sample 3
SMILES: CC(C)(O)c1cncc(-c2nc3ccc(F)cc3n2C2CC2)c1
Effect on: cell-free assay
Method: competition with immobilised ligand
Concentration: 1 µM
target | remaining binding
GRK2 (Homo sapiens, UniProt P25098) | 100%
MAPK4 (Homo sapiens, UniProt P31152) | 100%
FLT3 (Homo sapiens, UniProt P36888, R834Q) | 100%
Ribosomal protein S6 kinase alpha-5, C-terminal kinase domain (RPS6KA5, Homo sapiens, UniProt O75582) | 100%
DAPK1 (Homo sapiens, UniProt P53355) | 100%
PTK2 (Homo sapiens, UniProt Q05397) | 100%

Sample 4
Compound: CCCCc1c(-c2ccc(O)cc2)[nH]c2nccnc12
Effect on: enzyme activity
Mode: inhibitor
Concentration: 0.5 µM
Reference: control
target | remaining activity [%]
NEK6 (Homo sapiens, UniProt Q9HC98) | 123
ARAF (Homo sapiens, UniProt P10398) | 92.6
ACVR1B (Homo sapiens, UniProt P36896) | 117
FRK (Homo sapiens, UniProt P42685) | 87.6
RPS6KA2 (Homo sapiens, UniProt Q15349) | 87.7
WEE1 (Homo sapiens, UniProt P30291) | 94.6
MERTK (Homo sapiens, UniProt Q12866) | 94.1
